Assay results collected from several papers.
Each numbered part is a random draw from the data of one study; scales do not carry over between parts.

Study 1
Target: RNA binding protein fox-1 homolog 2, RRM domain, GST-SBP tag (RBFOX2, Homo sapiens, UniProt O43251-10, residues 100-194)
Method: RNA Bind-n-Seq
Molecule type: RNA
Matrix: in vitro
Tested at: 365 nM
Notes: natural RNA segment, single round, ends assumed
Relative to: no-protein control
Reading: higher = stronger binding
Measurement: RBNS enrichment (R)
Shared flanks, not repeated: GGGAGUUCUACAGUCCGACGAUC … UGGAAUUCUCGGGUGCCAA
Target sequence (chain): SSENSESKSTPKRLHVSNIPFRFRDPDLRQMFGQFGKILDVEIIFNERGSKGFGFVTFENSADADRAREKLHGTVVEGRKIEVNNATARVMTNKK
UUAAAGCAAGGAAAAGUGUCACUGAAACAUAAACUGCACCUUAUUGUUUUAUAUUUUUGUACAGAUGAGAAGUUGAGGUAGAACACUGAGUAGAAAGGGCGACUGACCCU: 1.33
AGCCCGUGCUCUUGAGAGAGAGCGAGCUUCGGGACCCUAACUGUAUGGACCAUCUUCAAACUGCUGGAUCCCCUGUAUAUGUUGAAUGAUGCCUGGUGGUCUUACAGCAU: 4.3
AAAUUUUGGAAUCCUCUAAACAUUUUUGUAUCUUUAAUUGGUUUAUUAUUAAAUAAAUCAUAUAAAAUUCUCAGUGUCUGUUUUCAGGCAAAAGUUUCUUAAAGAAUAAG: 0.604
GGUGCUGGGUAUGGAACCCAGGGCUUUGUGCAUGCUAGGCGAGCACUUACCAACUGAGCUACAUCCCCAAUCCCACUACAGCCCAUUUUAAAACCAUCUUGAAAGAACCC: 0.642
UUUCUCUCUAGCAGGCUUGGAGGGAAGGCCUUCUGGUCUACCUGGGAUUUUACAGAGUUUUUGAGAAUGGGUGUGAUUACUGACUUGAAUUAAAAAAGAAUUUGGAGUUA: 0.735
UCCGAGGCCACCCUUCACGGCGAGCCUCGUGCUGGGCUCUUACCUGUGCUUUCUUGCUCUGGACUGCGAGUGCACCCAGGGUUCUUCUAUCCCGACACAGCUCUGUGCCU: 0.237
CCAAAGUACUGGGAUUACAGGUUCCCUACUUCAGCAAAGCGUGGCAGCGUGUGAUACAGAUACCACUGCUUUCAGGCUCUUGUCCUUUAAGUCCUGAUCAGCUGUCAGAU: 0.239
GCUGUGAGGACACUCACCUUGUUCUGGCUUCAGCUGCUAGCCUACCCACAUCUCAGCGCUUUCCCCUUUUUUACCACUUAGACUUAAAGCAGGUGUCUUAAUUUACUCAA: 0.573
AAGUACAUUUUUAUAUGUCAGUUGCUGCCCUUCACACUACCAGGCCCUGCAGCCACAGUGUUCUGUUGGAGAAACUUGGGGAAGUGUUUUCUGAACCAGUUCUUUUUCUU: 0.27
UUCUUUAGGUUUAAAAAAGAGCACUCAUAAUGCAAUAUGUGAAUAAUCAGUGAGGUUGAUUUUUCUUUUUUCCUACCGUUUCAUAGUCUUUGUCUAACUGCUAGUAACCC: 0.464
UACAUGCCUGAUGGCACCUUACUCCAGCAGCCUCCAGGUGCUUUCAUUUUCACUUCCAGUCUAAGCCAGUGGCUCCUGCCACUGCCCUCCCAUUACCUAGAUGGCACCUC: 0.42
GUGGCUCUGGGUACCUGCAAGCAGAACUUCCAAAGAGAGUUAAAAGCAGCAGCCCCGGCAACUCUGGCUCCAGGCAGAAGGAGAGGCCCGGUGCAGCUGAGGUUCCCGAC: 1.33

Study 2
Target: RING finger protein unkempt homolog, zinc fingers 1-6, GST-SBP tag (UNK, Homo sapiens, UniProt Q9C0B0, residues 30-357)
Method: RNA Bind-n-Seq
Molecule type: RNA
Matrix: in vitro
Tested at: not given
Notes: RNA with constant flanks, human and mouse sites, ends assumed
Relative to: input RNA pool
Reading: higher = stronger binding
Measurement: bound/input enrichment
Shared flanks, not repeated: GGGAGUUCUACAGUCCGACGAUC … CAACAGAGGAUUGAGCAUCA
Residues (chain): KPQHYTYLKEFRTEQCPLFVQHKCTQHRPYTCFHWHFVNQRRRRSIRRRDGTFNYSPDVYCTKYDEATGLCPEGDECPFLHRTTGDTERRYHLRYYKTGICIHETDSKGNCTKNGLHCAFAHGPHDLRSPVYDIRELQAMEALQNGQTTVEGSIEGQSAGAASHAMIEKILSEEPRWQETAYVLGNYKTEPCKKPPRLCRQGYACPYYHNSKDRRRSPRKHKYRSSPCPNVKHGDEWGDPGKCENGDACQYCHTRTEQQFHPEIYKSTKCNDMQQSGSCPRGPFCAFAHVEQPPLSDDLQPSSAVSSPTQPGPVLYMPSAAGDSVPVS
AUAUCUGAUCAGAUAGUCCCUUCAUUCUGUAGACGUGUAUUGGUUGGUCCAAGACACAGUGAGUAGGAGCUCUGUGGACCAAGACAAAGCUGGACUAGAGAGUACAGUUCAAACUUGGCA: 0.415 ratio
UUGCCCAUCAGGUUUAACCUUACUUACGUCAGCCACGAUGGCGAUGAUAAGAAAAGGCCAGUGAUUGUUCACAGAGCCAUCCUGGGGUCGGUGGAAAGAAUGAUUGCCAUCCUCACAGAA: 0.131 ratio
UGCUUUAUGUGGUAGAAAGCAGAUUUAUGGUUUAAUACUUGUGUCUUCAUGGCACCUCGUUAGUUUCCACAGUAAAAUGAUAUUUGGUUGCAGGAAAGGCUCCUGCAUCUGGUACAUGGA: 0.633 ratio
CUAAGGGCUAAGGCCUCUUGCUGGUGCACAUGACAUUUGUCCUGCAGAGCUGGGGGGAAGGCGAUGUGGUGACCCCACCCCCACCCGUUAAUUUAAAGCUGUUUCUAAACAGUUGAGUUU: 0.218 ratio
ACAGACUGUGUGGUUAUGCGGGAUCCUGCAAGCAAAAGAUCAAGAGGAUUUGGCUUUGUAACUUUCUCAUCCAUGGCCGAGGUUGACGCUGCCAUGGCUGCAAGGCCCCAUUCCAUUGAU: 0.14 ratio
UAUAAAGCACUUGAAUCGAUUGAAUAUGUUCAGACAUUCAAAGGAUUGAAGACUAAAUAUGAGCAAGAAAAAGACAGACAAAAUCAGAAACUGAACAGUGUACCAUCUAUAUUGCGUAGU: 0.281 ratio
UCAAUAACCUUUUCAGAUGAAAAUGAUGAUCAGGAUUUUGAAUUAUGGGAUGAUGUAGGAUUAAACAUUCCCAAACCCCCAGACUUGUUACAACUUUACCGAGACUUUGGAAAUCAUCAA: 0.145 ratio
AGCGUUCAGGAAUUCAUGACCUUCACGAGUCAACUGAUUGUGGAGCGCUCAUCGAAAGGCACUAGAGCUUCUGUCAAAGAACAAGACUAUCUGUGCCACGUCUACGUCCGGAAUGAUAGU: 0.043 ratio
AAGUGUCUUUUCAUUCAGGGAAAACUGUUGUUUGCCGAGCCCAAGGAUGCGGGCUUUCCAUUUAGCCAGGAUAUCAAUAGCCAUUUGGCCAGCCUCUCAAUGGCUAGAAACACGAGCCCC: 0.243 ratio
CCAGGCCAGGACCACGUGGCCGUGACCAUCCAGCUCCUCCUUAGACGAGGCAACAUCUUCCUCACGUCCUACCAGUACCCCUUCUACGACUGCCGCCAGGCCAUGAGCCUGGAGGAGAAC: 0.382 ratio
UUCUCUCGAGUUGAAGAAGACUAUCUCUGGAGGAUAAAACAACUAGGAUCACACUCUCCAGUAGCUCUUCUGAAUACACUGUUCUACUUUAACACUAAGUAUUUUGGCCUGAAAACAGUG: 0.4 ratio

Study 3
Target: Ras GTPase-activating protein-binding protein 1, C-terminal RGG region (G3BP1, Homo sapiens, UniProt Q13283)
Chain of UniProt Q13283 (whole entry, looked up): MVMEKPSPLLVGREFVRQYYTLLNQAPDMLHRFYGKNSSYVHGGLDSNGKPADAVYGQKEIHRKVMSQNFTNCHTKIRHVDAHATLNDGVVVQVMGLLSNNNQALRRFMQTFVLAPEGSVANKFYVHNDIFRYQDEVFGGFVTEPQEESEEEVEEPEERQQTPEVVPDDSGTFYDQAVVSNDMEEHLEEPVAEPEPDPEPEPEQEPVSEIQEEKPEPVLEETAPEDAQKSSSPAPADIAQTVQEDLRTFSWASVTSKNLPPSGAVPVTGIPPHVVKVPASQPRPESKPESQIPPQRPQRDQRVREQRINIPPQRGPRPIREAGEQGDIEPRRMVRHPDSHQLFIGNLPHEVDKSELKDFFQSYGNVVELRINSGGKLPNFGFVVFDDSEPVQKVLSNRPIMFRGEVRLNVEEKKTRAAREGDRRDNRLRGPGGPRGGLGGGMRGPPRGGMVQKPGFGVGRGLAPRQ
Method: RNA Bind-n-Seq
Molecule type: RNA
Matrix: in vitro
Tested at: 1 µM
Notes: whole 134-nt RNA, ends assumed
With: 150 mM KCl
Relative to: input library
Reading: higher = stronger binding
Measurement: log2 enrichment
Shared flanks, not repeated: GGGAGUUCUACAGUCCGACGAUC … UGGAAUUCUCGGGUGUCAAGG
CUCAAGUCCUGUGCUACACAUCGUAUGUACCGAAUCGGUUGGGUUGGUUGGGGAAAGUAUUAUGUUACGCCGUUCGGAUCUGCACUUCCA: -0.732
GUCCUGUGCUACACAUCGUAUGUACCGAAUCGGGGAGGGGUUUUUUUGGGGAAAGGGGAAAGUAUUAUGUUACGCCGUUCGGAUCUGCAC: 1.75
CUCAAGUCCUGUGCUACACAUCGUAUGUACCGAAUCGGGGAGGGAGGGGAGGGGAAAGUAUUAUGUUACGCCGUUCGGAUCUGCACUUCC: 2.62
GUCCUGUGCUACACAUCGUAUGUACCGAAUCGGGGUUUUUUUGGGGUGGGGUUUGGGGAAAGUAUUAUGUUACGCCGUUCGGAUCUGCAC: 2.08
CUGUGCUACACAUCGUAUGUACCGAAUCGGGGUUUUUUGGGGUUUUUUGGGUUUUUUGGGGAAAGUAUUAUGUUACGCCGUUCGGAUCUG: -0.782
CACAGACAACACGCACCCACACAGACACAGAGGGAAGGGGUUGGGAUGGGGACAGGGUGCACAGCAGGGCAGGGUAGGACCCCAGCCCCU: -1.23
GUCCUGUGCUACACAUCGUAUGUACCGAAUCGGCCCCCGGGGCCCCCGGGCCCCCGGGGAAAGUAUUAUGUUACGCCGUUCGGAUCUGCA: -1.89
GCAGGAAGUAAAAACAAAUGGAAAUGCUUCGGAUAGUGGCAGGGGUGGGGGUUGCUAAGGAAAAAAUGGGAUGGGAGUGGGUAAAGAGUU: 2.16
GCAGGAAGUAAAAACAAAUGGAAAUGCUUCGGAUAGUGGCAGGGGUGGGGGUUGCUAAGGAAAGGGUGGCAUGGGAGUGGGUAAAGAGUU: 1.87
GCAGCAAGUAAAAACAAAUGGAAAUGCUUCGGAUAGUGGCAGGGGUGGGGGUUGCUAAGGAAAGGGUGGGAUGGGAGUGGGUAAAGAGUU: 1.77
CCUCAAGUCCUGUGCUACACAUCGUAUGUACCGAAUCGGGGUGGUGGGGUGGAAAGUAUUAUGUUACGCCGUUCGGAUCUGCACUUCCAG: -0.233
GUCCUGUGCUACACAUCGUAUGUACCGAAUCGGGGUGGGGAAAAAAAGGGGAAAGGGGAAAGUAUUAUGUUACGCCGUUCGGAUCUGCAC: 2.44
UCCUGUGCUACACAUCGUAUGUACCGAAUCGGGAAAAAAAGGGUUUGGGUUUUUUUGGGAAAGUAUUAUGUUACGCCGUUCGGAUCUGCA: -0.292
CUCAAGUCCUGUGCUACACAUCGUAUGUACCGAAUCGGGAAAGGGUGGGAGGGAAAGUAUUAUGUUACGCCGUUCGGAUCUGCACUUCCA: 1.83

Study 4
Target: Sal-like protein 4, full length isoform A (SALL4, Homo sapiens, UniProt Q9UJQ4, residues 1-1053)
Chain of UniProt Q9UJQ4 (whole entry, looked up): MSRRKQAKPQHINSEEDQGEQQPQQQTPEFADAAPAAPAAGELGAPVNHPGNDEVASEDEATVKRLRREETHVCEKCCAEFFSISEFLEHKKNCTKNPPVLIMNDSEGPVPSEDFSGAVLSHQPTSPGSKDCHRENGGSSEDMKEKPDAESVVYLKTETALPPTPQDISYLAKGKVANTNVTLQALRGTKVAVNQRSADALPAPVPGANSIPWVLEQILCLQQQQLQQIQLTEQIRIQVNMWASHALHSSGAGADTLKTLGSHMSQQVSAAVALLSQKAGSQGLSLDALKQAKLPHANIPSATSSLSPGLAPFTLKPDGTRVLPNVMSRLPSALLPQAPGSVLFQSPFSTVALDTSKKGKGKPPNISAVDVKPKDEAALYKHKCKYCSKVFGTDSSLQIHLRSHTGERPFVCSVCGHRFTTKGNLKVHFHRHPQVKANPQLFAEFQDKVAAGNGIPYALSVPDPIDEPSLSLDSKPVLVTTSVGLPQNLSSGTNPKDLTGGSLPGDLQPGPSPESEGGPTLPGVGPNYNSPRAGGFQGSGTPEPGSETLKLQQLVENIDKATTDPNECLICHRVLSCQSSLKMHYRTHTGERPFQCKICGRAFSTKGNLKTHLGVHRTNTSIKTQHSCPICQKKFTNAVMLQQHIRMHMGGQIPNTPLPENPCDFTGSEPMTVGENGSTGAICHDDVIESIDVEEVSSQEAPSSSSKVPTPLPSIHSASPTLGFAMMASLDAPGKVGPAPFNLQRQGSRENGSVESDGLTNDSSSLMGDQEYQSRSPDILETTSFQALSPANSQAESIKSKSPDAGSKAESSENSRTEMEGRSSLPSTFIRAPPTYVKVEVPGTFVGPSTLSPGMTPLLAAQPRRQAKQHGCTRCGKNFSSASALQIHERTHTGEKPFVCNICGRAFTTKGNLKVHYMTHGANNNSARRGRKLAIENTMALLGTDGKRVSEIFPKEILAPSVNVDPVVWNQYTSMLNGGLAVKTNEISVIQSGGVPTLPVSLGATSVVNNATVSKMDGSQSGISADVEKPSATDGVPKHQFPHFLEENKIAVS
Method: universal PBM
Molecule type: double-stranded DNA, one strand shown
Matrix: in vitro
Tested at: 600 nM
Notes: 8-mer, flanks averaged, mean of replicates
Reading: higher = stronger binding
Measurement: E-score
GCAGATGC: -0.243
ATTAAAAT: 0.398
AATCAAGT: 0.159
GACGCGGC: -0.147
ACCTAAGG: -0.172
ATACGCGC: -0.0853
AGTCGCAT: 0.00848
AGTACAAG: 0.0193
ACTTTTAC: 0.274
CGTCTTAC: 0.0104
CTATTACA: 0.251
AGCTCCGC: -0.27
ACGAGGTG: -0.0312
TAGCATAA: 0.261
ACAGATAA: 0.222
CCGTTTTA: 0.066
CTACATCC: 0.0551
AGGGGAGG: -0.192
CCCTTAGC: -0.202
AGCAAGTC: -0.206
TCCCATAA: 0.24
GCAAGGGC: -0.293
AGATGGGC: -0.24

For quick reference, copied from above (study 4):
GACGCGGC: -0.147
CGTCTTAC: 0.0104
AATCAAGT: 0.159
ATACGCGC: -0.0853
ACGAGGTG: -0.0312
CTATTACA: 0.251
